Published values of several laboratories.
Every numbered part comes from another study and shows a few of its results, in no order.
Chain of UniProt Q06418 (whole entry, looked up): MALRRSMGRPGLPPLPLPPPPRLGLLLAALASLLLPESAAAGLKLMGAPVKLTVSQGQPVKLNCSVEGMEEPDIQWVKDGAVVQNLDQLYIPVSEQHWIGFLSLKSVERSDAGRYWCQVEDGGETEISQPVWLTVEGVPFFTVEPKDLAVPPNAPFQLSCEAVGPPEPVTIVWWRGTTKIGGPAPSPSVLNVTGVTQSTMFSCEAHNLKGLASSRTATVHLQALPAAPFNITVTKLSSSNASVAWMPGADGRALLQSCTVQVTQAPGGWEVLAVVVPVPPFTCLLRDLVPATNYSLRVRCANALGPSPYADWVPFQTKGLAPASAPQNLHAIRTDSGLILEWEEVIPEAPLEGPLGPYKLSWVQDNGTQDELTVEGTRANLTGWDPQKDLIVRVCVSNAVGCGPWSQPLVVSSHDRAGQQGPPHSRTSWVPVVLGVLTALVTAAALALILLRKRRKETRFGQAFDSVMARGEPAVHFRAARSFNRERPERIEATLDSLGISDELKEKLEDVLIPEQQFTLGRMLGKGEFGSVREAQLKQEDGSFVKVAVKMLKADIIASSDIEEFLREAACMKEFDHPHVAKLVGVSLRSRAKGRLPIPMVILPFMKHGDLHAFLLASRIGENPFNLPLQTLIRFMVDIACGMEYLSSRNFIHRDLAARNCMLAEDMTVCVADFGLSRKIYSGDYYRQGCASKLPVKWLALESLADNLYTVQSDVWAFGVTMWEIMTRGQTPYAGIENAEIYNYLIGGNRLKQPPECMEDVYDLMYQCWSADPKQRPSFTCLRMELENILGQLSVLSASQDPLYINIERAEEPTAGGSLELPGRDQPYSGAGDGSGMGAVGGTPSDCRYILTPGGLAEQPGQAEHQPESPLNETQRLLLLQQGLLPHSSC
Chain of UniProt Q13164 (whole entry, looked up): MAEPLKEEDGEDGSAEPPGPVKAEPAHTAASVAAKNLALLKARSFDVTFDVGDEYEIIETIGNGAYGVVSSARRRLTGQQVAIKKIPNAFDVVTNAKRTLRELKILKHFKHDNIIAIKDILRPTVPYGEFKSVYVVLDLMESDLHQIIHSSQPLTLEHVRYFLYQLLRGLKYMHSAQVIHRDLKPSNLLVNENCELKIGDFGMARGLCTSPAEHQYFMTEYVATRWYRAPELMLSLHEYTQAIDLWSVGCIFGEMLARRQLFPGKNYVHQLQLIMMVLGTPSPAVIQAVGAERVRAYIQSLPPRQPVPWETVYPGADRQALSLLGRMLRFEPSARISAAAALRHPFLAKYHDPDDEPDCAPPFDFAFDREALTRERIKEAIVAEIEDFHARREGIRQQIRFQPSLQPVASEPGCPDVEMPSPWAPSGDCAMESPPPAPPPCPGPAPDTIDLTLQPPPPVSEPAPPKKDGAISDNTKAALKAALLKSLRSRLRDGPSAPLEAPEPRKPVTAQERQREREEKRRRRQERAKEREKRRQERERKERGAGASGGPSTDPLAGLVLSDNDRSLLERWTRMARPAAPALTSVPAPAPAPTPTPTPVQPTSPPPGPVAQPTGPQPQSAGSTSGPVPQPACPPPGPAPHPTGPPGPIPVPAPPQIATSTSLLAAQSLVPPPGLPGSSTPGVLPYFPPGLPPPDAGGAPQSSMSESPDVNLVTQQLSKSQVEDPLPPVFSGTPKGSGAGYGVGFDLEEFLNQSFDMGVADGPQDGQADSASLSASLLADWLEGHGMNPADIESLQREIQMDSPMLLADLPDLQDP
Chain of UniProt P22455 (whole entry, looked up): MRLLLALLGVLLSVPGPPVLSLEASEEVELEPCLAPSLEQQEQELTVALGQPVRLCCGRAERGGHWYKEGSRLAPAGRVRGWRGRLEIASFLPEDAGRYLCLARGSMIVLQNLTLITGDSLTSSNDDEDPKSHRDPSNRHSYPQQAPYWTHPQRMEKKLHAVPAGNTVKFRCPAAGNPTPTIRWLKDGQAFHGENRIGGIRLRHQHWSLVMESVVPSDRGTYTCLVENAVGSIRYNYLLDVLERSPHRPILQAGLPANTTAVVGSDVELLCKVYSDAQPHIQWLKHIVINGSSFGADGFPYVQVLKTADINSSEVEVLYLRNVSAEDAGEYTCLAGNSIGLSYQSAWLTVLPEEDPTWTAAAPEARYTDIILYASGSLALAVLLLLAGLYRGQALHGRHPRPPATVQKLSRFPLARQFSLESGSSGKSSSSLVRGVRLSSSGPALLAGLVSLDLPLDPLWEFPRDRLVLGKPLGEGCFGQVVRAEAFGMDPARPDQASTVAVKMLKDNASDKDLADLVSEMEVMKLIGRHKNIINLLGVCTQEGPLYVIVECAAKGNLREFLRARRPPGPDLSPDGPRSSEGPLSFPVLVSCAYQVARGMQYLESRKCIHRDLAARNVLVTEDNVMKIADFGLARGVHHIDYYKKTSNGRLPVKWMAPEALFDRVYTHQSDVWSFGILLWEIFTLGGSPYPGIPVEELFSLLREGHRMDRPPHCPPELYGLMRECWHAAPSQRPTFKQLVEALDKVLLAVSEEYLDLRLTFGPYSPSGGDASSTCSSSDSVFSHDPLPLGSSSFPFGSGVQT
Chain of UniProt Q99755 (whole entry, looked up): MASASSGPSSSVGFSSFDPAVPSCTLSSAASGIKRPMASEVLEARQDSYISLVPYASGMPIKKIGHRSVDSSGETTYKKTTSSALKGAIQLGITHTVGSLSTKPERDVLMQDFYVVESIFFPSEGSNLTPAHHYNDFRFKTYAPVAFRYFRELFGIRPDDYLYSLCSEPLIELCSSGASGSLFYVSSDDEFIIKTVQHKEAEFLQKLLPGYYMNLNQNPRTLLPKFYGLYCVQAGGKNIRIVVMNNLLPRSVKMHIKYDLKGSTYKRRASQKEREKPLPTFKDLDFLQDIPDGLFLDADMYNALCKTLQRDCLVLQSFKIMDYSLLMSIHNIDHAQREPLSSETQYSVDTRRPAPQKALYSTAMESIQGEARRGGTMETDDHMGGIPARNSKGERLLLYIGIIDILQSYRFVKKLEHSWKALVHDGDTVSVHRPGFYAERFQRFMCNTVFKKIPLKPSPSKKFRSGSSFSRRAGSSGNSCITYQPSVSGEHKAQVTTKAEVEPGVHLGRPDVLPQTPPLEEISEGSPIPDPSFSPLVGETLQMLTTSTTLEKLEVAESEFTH
Chain of UniProt O75822 (whole entry, looked up): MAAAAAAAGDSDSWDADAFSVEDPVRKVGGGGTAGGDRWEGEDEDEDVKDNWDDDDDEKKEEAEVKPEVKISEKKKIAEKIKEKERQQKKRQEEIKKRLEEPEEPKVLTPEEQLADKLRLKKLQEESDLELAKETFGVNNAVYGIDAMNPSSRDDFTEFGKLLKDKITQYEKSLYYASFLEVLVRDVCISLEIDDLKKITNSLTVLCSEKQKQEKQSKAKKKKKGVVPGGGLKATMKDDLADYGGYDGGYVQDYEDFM
Chain of UniProt Q9NSY1 (whole entry, looked up): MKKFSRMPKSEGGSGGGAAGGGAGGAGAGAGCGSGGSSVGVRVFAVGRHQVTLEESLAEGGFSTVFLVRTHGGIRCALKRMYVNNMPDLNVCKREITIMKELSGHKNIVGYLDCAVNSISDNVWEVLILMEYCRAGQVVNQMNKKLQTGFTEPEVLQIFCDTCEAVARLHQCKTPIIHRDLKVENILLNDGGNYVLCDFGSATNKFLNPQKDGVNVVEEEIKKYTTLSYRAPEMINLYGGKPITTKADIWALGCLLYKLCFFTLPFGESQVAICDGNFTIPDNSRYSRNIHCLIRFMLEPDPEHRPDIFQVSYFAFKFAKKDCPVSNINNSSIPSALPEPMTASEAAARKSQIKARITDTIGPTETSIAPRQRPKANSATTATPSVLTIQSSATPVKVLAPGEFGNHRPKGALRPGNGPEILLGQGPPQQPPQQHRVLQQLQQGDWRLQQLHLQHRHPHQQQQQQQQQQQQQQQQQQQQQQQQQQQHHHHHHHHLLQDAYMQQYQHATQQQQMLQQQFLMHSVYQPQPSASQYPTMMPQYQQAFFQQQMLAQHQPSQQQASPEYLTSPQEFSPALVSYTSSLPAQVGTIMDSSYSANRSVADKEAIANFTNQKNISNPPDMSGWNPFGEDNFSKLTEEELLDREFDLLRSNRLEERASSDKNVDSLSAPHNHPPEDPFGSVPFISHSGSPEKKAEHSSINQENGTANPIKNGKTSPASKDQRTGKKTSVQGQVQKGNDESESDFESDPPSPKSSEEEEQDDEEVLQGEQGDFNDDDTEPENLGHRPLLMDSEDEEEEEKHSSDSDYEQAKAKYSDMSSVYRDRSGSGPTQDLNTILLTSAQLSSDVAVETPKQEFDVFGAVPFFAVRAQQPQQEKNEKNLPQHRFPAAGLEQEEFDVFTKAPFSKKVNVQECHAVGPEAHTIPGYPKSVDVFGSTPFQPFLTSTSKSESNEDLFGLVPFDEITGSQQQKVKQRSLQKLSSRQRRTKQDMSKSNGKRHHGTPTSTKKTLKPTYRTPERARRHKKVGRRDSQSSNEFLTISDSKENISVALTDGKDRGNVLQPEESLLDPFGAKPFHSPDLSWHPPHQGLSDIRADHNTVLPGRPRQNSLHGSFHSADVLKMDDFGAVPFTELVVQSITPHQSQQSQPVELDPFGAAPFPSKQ
Chain of UniProt P68400 (whole entry, looked up): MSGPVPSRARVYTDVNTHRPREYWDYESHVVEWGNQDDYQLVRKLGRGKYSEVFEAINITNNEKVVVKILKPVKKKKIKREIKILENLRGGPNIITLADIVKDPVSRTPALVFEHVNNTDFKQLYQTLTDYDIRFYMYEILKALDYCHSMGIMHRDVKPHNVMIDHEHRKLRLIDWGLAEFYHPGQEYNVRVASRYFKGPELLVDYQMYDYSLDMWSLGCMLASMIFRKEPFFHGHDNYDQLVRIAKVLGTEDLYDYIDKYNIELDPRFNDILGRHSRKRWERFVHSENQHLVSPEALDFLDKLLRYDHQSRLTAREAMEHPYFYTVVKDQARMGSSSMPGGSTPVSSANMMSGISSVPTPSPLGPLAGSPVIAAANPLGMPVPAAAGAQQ

Sample 1
Target: Beta-adrenergic receptor kinase 1 (GRK2, Homo sapiens, UniProt P25098)
Effect on: enzyme activity
Mode: inhibitor
Tested at: 0.5 µM
Relative to: control
Residues (P25098 1-689): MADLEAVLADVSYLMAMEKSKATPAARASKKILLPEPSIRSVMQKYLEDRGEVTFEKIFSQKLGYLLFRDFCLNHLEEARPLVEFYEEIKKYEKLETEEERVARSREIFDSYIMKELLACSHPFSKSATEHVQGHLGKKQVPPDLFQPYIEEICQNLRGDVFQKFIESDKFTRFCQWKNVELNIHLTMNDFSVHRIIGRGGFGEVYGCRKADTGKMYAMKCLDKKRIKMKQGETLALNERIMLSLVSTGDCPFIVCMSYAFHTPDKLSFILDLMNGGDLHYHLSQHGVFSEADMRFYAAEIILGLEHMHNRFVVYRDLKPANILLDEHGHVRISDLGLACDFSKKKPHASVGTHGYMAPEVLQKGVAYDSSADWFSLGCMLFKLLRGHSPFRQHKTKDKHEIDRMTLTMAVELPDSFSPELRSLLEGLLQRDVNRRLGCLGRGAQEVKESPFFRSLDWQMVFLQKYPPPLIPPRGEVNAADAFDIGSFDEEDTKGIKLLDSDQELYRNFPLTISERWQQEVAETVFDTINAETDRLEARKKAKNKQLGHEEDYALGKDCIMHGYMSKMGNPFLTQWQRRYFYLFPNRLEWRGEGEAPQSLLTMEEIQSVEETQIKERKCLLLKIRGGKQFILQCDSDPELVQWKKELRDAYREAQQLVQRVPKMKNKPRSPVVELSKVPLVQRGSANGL
`O=C(NC(NC(=S)Nc1ccc(F)c([N+](=O)[O-])c1)C(Cl)(Cl)Cl)C(c1ccccc1)c1ccccc1` (centres unmarked) gave a remaining activity of 79.5%.
The remaining activity of `CCOc1nc(NC(=O)Cc2cc(OC)ccc2OC)cc(N)c1C#N` is reported as 108%.
`C[C@@H]1CCN(C(=O)CC#N)C[C@@H]1N(C)c1ncnc2[nH]ccc12` gave a remaining activity of 95.3%.
With `O=C1C(Cl)=C(N2C(=O)CCC2=O)C(=O)c2ccccc21` the remaining activity was 105%.
For `O=C(Nc1cccc(Nc2nccc(Nc3cccc(C(F)(F)F)c3)n2)c1)C1CC1`, the remaining activity was 84.7%.
The remaining activity of `COc1cc2ncnc(Nc3cccc(Cl)c3)c2cc1OC` is reported as 96.6%.
For `CN(C)C[C@H]1CCn2c(c(C3=C(c4cn(C)c5ccccc45)C(=O)NC3=O)c3ccccc32)C1`, the remaining activity was 103%.
The remaining activity of `COc1cc2c(cc1OC)-c1[nH]nc(Nc3cccc(F)c3)c1C2` is reported as 93%.
With `Nc1cccc(-c2cc3c(Oc4cccc(O)c4)ncnc3[nH]2)c1` the remaining activity was 108%.
`Cc1cc2ncc(-c3ccccc3)nc2cc1C` gave a remaining activity of 92.5%.
With `CCN(CC)C(=O)c1ccc(Nc2nc(OCC3CCCCC3)c3[nH]cnc3n2)cc1` the remaining activity was 92.6%.
With `CCN(CC)CCNC(=O)c1c(C)[nH]c(/C=C2\C(=O)Nc3ccc(F)cc32)c1C` the remaining activity was 94.7%.
With `Ic1cccc(CSc2nnc(-c3ccncc3)o2)c1` the remaining activity was 99.9%.
`c1ccc(-c2cnc(Nc3ccc(OCCN4CCCC4)cc3)s2)cc1` has a remaining activity of 95.8%.
The remaining activity of `O=c1cc(-c2cccc3c2Sc2ccccc2S3)oc(N2CCOCC2)c1` is reported as 79%.
The remaining activity of `N#C/C(=C\c1ccc(O)c(O)c1)C(=O)NCc1ccccc1` is reported as 96.6%.
For `Cc1cn(-c2cc(NC(=O)c3ccc(C)c(Nc4nccc(-c5cccnc5)n4)c3)cc(C(F)(F)F)c2)cn1`, the remaining activity was 95.8%.
With `N#Cc1c(NC(=O)c2cccc3ccccc23)sc2c1CCCC2` the remaining activity was 105%.
`Cn1nc2c3c(cccc31)C(=O)c1ccccc1-2` gave a remaining activity of 103%.
For `c1ccc(-c2[nH]ncc2-c2ccnc3ccccc23)nc1`, the remaining activity was 101%.
`CCN(CC)CCNC(=O)c1c(C)[nH]c(/C=C2\C(=O)Nc3ccc(Cl)cc32)c1C` has a remaining activity of 104%.
The remaining activity of `Cc1nc2cc3nc(-c4cccs4)cnc3cc2n1C` is reported as 83.7%.
The remaining activity of `COc1cc2ncnc(Nc3ccc(O)c(Br)c3)c2cc1OC` is reported as 99%.
With `O=C1c2ccccc2-c2n[nH]c3cccc1c23` the remaining activity was 99.4%.

Sample 2
Compound: CC(C)[C@H](CO)Nc1nc(Nc2cccc(Cl)c2)c2ncn(C(C)C)c2n1
For protein Tb427tmp.01.1470; kinobead TMT proteomics; Trypanosoma brucei, cell lysate: IC50 read over 10 µM.
It gave over 10 µM for IC50 (ULK3 (Homo sapiens, UniProt Q6PHR2)).
It gave 5.82 µM for IC50 (Trypanosoma brucei CAMKK Tb427tmp.02.4860; binding, kinobead competition; Trypanosoma brucei lysate).
For Eukaryotic translation initiation factor 3 subunit J (Homo sapiens, UniProt O75822): IC50 read over 10 µM.
The IC50 was over 10 µM (HSPA5 (Homo sapiens, UniProt P11021)).
Trypanosoma brucei protein Tb427tmp.01.8085; binding, kinobead competition; Trypanosoma brucei lysate — IC50: over 10 µM.
CSNK2A1 (Homo sapiens, UniProt P68400) — IC50: over 10 µM.

Sample 3
SMILES: COc1ccc(-c2c(Nc3ccccn3)[nH]c3c(C4=CCCCC4)c(-c4ccccc4)nn3c2=O)cc1
Medium: plasma
Route: oral
For cancer patients; 100 mg, 24 h post-dose, single dose: “plasma concentration, geometric mean” read 634 ng/mL.
The “plasma concentration, geometric mean” was 1240 ng/mL (cancer patients; 150 mg, 4 h post-dose, single dose).
It gave 951 ng/mL for “plasma concentration, geometric mean” (cancer patients; 100 mg, 8 h post-dose, single dose).
It gave 394 ng/mL for “plasma concentration, geometric mean” (cancer patients; 50 mg, 6 h post-dose, single dose).
The “plasma concentration, geometric mean” was 315 ng/mL (cancer patients; 100 mg, 48 h post-dose, single dose).
cancer patients; 50 mg, 48 h post-dose, single dose — “plasma concentration, geometric mean”: 71.9 ng/mL.
cancer patients; 150 mg, 1 h post-dose, single dose — “plasma concentration, geometric mean”: 416 ng/mL.
It gave 2660 ng/mL for “plasma concentration, geometric mean” (human patients; 100 mg once daily, 0 h, cycle 1).
It gave 4660 ng/mL for “plasma concentration, geometric mean” (human patients; 200 mg once daily, 8 h, cycle 1).

Sample 4
SMILES: CCOC(=O)c1cc2cc(-c3cc(C(=O)NCc4ccc(C(=O)O)cc4)nn3C)ccc2[nH]1
Technique: competition with immobilised ligand
Tested at: 0.1 µM
Ribosomal protein S6 kinase alpha-5, N-terminal kinase domain (RPS6KA5, Homo sapiens, UniProt O75582); cell-free assay — remaining binding: 91%.
For MAP2K4 (Homo sapiens, UniProt P45985); cell-free assay: remaining binding read 93%.
It gave 86% for remaining binding (NLK (Homo sapiens, UniProt Q9UBE8); cell-free assay).
PIP5K1A (Homo sapiens, UniProt Q99755); cell-free assay — remaining binding: 100%.
The remaining binding was 100% (MAPK7 (Homo sapiens, UniProt Q13164); cell-free assay).
For TYRO3 (Homo sapiens, UniProt Q06418); cell-free assay: remaining binding read 100%.
For TGFBR2 (Homo sapiens, UniProt P37173); cell-free assay: remaining binding read 66%.
For FES (Homo sapiens, UniProt P07332); cell-free assay: remaining binding read 94%.
MAP3K9 (Homo sapiens, UniProt P80192); cell-free assay — remaining binding: 100%.
It gave 80% for remaining binding (PLK2 (Homo sapiens, UniProt Q9NYY3); cell-free assay).
The remaining binding was 100% (MST1R (Homo sapiens, UniProt Q04912); cell-free assay).
ROS1 (Homo sapiens, UniProt P08922); cell-free assay — remaining binding: 97%.
The remaining binding was 100% (EGFR (Homo sapiens, UniProt P00533, del747-752/P753S); cell-free assay).
It gave 85% for remaining binding (TAOK3 (Homo sapiens, UniProt Q9H2K8); cell-free assay).
For Tyrosine-protein kinase ABL1, phosphorylated (ABL1, Homo sapiens, UniProt P00519, F317L); cell-free assay: remaining binding read 100%.
The remaining binding was 80% (MAP3K7 (Homo sapiens, UniProt O43318); cell-free assay).
The remaining binding was 82% (MAP2K5 (Homo sapiens, UniProt Q13163); cell-free assay).
MAP3K13 (Homo sapiens, UniProt O43283); cell-free assay — remaining binding: 74%.
ERBB4 (Homo sapiens, UniProt Q15303); cell-free assay — remaining binding: 96%.
The remaining binding was 100% (EGFR (Homo sapiens, UniProt P00533, del752-759); cell-free assay).
The remaining binding was 89% (NTRK1 (Homo sapiens, UniProt P04629); cell-free assay).
BMP2K (Homo sapiens, UniProt Q9NSY1); cell-free assay — remaining binding: 100%.
PIK3C2G (Homo sapiens, UniProt O75747); cell-free assay — remaining binding: 100%.
It gave 68% for remaining binding (FGFR4 (Homo sapiens, UniProt P22455); cell-free assay).
For Myosin-IIIa (MYO3A, Homo sapiens, UniProt Q8NEV4); binding: remaining binding read 100%.

For quick reference, copied from above (sample 4):
ROS1 (Homo sapiens, UniProt P08922); cell-free assay — remaining binding: 97%.
The remaining binding was 100% (EGFR (Homo sapiens, UniProt P00533, del747-752/P753S); cell-free assay).
It gave 85% for remaining binding (TAOK3 (Homo sapiens, UniProt Q9H2K8); cell-free assay).
For Tyrosine-protein kinase ABL1, phosphorylated (ABL1, Homo sapiens, UniProt P00519, F317L); cell-free assay: remaining binding read 100%.
The remaining binding was 80% (MAP3K7 (Homo sapiens, UniProt O43318); cell-free assay).
The remaining binding was 82% (MAP2K5 (Homo sapiens, UniProt Q13163); cell-free assay).
MAP3K13 (Homo sapiens, UniProt O43283); cell-free assay — remaining binding: 74%.
ERBB4 (Homo sapiens, UniProt Q15303); cell-free assay — remaining binding: 96%.
